# Results from different studies.
# Each numbered part is a random draw from the data of one study; scales do not carry over between parts. Substitutions count along the parent as printed.
# Sequence of UniProt P41145 (whole entry, looked up): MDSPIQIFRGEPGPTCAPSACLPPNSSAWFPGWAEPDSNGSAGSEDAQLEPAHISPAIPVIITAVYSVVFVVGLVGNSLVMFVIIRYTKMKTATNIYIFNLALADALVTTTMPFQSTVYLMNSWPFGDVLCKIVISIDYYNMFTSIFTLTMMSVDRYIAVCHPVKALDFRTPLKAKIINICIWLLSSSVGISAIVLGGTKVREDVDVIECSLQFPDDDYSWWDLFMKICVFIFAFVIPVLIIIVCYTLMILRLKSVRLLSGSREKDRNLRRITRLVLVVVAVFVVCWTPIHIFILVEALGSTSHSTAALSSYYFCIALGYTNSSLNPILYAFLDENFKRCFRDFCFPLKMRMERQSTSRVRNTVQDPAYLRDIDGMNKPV
# Sequence of UniProt P23975 (whole entry, looked up): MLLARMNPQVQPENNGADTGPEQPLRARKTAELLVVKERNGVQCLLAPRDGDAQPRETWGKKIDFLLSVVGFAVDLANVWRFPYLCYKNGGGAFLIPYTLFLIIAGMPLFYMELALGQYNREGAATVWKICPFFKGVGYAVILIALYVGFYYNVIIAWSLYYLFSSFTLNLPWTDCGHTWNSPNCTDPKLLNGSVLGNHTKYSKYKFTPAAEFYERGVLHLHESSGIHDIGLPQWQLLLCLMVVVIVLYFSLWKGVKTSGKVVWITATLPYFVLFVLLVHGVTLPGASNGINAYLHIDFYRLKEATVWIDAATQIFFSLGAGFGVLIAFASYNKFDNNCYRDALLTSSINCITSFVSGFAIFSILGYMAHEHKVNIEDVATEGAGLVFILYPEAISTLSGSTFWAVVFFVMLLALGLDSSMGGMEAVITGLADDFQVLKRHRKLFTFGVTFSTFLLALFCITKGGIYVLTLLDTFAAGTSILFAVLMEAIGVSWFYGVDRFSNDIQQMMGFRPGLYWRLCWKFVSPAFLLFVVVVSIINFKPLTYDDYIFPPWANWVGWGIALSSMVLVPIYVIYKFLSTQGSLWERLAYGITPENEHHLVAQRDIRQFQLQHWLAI

# Study 1
# Target: CCND2, cyclin fold, Cln2 fusion (human)
# Method: yeast growth competition, sequencing
# Medium: yeast
# Notes: strong parent motif
# Reference: not given
# Direction: higher = stronger binding
# Starting sequence: viral docking peptide; YKVKRRLVFGADD; partner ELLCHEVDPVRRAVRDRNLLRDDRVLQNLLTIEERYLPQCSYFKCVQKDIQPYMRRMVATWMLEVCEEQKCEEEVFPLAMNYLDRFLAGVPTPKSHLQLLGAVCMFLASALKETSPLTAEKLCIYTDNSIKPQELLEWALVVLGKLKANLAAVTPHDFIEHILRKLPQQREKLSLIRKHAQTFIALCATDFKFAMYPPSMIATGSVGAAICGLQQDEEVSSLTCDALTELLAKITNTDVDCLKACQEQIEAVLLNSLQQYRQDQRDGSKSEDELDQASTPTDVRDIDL
Change,normalised enrichment score
D12S,0.64
L7A,-0.0845
K4D,0.42
V8G,-0.227
V3F,0.554
R5E,0.284
L7D,0.154
R6M,0.451

# Study 2
# Target: HLA class I histocompatibility antigen, A alpha chain, allele A*80:01 (Homo sapiens, UniProt P04439)
# Observed: peptide-MHC binding
# Molecule type: peptide
# Tested at: concentration not given
Sequence,binding
FPRYPLNVL,inactive
KLHCTERSL,inactive
NPLEIYQEI,inactive
SQFNHWFGE,inactive
AFMATNKAY,inactive
PMQQLTQPL,inactive
RTYSLLNRK,inactive
KLKSVGKAY,inactive

# Further values, each from its own experiment
Structure (SMILES),tested on,assay,system,conditions,endpoint,result
CNCc1ccccc1-c1csc([C@@H](C)Nc2nc(C)nc3cc(OC)c(OC)cc23)c1,"OPRK1 (Homo sapiens, UniProt P41145)",cell-free assay,,10 µM,inhibition,26.9%
[N-]=[N+]=CC(=O)CC[C@H](N)C(=O)O,,,"mouse, EL4 tumour","intravenous, 1 mg/kg, day 15",tumour volume,0 mm3
CC(=O)N1CCC(c2ccc(C(=O)NC3=NCCN3)cc2C(F)(F)F)CC1,"SLC6A2 (Homo sapiens, UniProt P23975)",ligand displacement,,10 µM,inhibition,21.5%

# Excerpt of the above (study 2):
Sequence,binding
NPLEIYQEI,inactive
